Results collected from several papers.
A part holds a random share of what one study measured.

Series 1
Target: Sal-like protein 4, full length isoform A (SALL4, Homo sapiens, UniProt Q9UJQ4, residues 1-1053)
Sequence of UniProt Q9UJQ4 (whole entry, looked up): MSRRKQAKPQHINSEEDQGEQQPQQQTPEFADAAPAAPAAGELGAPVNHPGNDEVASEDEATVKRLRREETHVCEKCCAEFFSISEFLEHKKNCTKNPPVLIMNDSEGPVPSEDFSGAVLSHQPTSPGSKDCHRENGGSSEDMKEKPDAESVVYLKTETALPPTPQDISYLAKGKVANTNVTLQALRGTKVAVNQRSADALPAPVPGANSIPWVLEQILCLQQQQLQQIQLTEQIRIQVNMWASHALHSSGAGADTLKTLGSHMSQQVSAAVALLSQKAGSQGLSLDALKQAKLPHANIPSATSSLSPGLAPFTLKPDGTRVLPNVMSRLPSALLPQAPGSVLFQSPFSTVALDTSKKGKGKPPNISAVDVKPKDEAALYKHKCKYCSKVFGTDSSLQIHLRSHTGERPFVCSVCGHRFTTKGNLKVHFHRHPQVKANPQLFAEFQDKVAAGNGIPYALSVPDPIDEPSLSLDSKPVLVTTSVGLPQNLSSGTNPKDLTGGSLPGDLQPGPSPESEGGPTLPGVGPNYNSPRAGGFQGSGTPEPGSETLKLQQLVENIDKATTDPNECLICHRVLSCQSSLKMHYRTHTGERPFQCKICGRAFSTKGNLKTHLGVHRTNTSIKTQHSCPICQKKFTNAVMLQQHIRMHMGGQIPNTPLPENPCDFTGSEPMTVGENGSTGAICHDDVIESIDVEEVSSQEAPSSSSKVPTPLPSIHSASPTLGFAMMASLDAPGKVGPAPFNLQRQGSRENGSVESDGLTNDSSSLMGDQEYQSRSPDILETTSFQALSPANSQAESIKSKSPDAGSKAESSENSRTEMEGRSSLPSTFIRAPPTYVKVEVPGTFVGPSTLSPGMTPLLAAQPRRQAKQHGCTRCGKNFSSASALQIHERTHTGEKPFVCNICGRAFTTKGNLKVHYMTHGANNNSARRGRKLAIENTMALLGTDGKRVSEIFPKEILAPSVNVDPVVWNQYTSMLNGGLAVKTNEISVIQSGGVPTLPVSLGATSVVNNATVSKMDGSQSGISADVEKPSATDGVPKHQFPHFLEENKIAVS
Method: universal PBM
Molecule type: double-stranded DNA, one strand shown
Sample: in vitro
Concentration: 600 nM
Notes: 8-mer, flanks averaged, mean of replicates
Reading: higher = stronger binding
Sequence	E-score
AGACCAGG	-0.274
ATGCCCCA	-0.227
CGGGCACA	-0.303
AATTTAAA	0.319
GGGACCGA	-0.344
CGTTGCGC	-0.194
CAGGAGAA	0.00123
CCTAGTCC	-0.193
GCATACGA	0.0351
CGGATGTC	-0.265
AATCACAA	0.147
CTAACTTC	0.176
ACGAGGCA	-0.0234
ACGATTAG	0.133
ATTCATCA	0.308
TCGAAGAA	0.0185
AGGGAAAT	0.0384

Series 2
Target: RNA binding protein fox-1 homolog 2, RRM domain, GST-SBP tag (RBFOX2, Homo sapiens, UniProt O43251-10, residues 100-194)
Method: RNA Bind-n-Seq
Molecule type: RNA
Sample: in vitro
Concentration: 365 nM
Notes: natural RNA segment, single round, ends assumed
Relative to: no-protein control
Reading: higher = stronger binding
Shared flanks, not repeated: GGGAGUUCUACAGUCCGACGAUC … UGGAAUUCUCGGGUGCCAA
Construct (chain): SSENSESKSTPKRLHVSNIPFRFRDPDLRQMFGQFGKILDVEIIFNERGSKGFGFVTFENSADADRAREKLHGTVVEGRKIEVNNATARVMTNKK
Sequence	RBNS enrichment (R)
GUGAUGCUUGUGUUGACCAGAUGUUCCUGAGUCUGGAGCAAGCACCCAGGCCAGAAUAACAGAGCUUUCUUAGUUGGUGAAGACUUAAACAUCUGCCUGAGGUCAGGAGG	0.407
ACAGAUGGUAUCCCUUCCUGGAUCAUUCAUUUCACCUUGGUUUCUAACUUUAGGUUUACUUUCACUUGUUAUUUGACUUAGCAGGUGCAACAAAAACAAGAAACAAAUGU	0.315
UUGUAUAACUCAGGCGUCUUUGCAUUUCUGCGAAAGAUCAAGGUCUGCAAGGGAAUUCUUGUGUGCUGCUUUCCAUUUGACACCGCAGUUCUGUUCAGCCAUCAGAAGAG	0.443
GUGUCUCUUUGGGAGAUGGUGUUCAAGUGGGAUACCUAAGUCUUCCCGUGGCUAGAUCCAGAGCAGAUUCAGCCGGCUCAUUUCCAAGGGCUGGGCCACUGCACAGUUUG	0.304
CUUGUUUACAGAAGAGAAACAAACAAGCCCCACUCAGCUCAGUCACAGGAGAGAACACAGAAAGUCUUAGGAUCAUGAACUCUGAAAAAAAGAGAAACCUUAUCUUUGCU	0.637
CUUUAGACCCUGACACGUGGAUGUUCUUCUGCAGUCUUGUCUGCUAAGUUUUAAAUAAAGUCAUGAUCAGUGUGCAUUUGUGAUUACAUGUGUACUCAUUCUUUUCCCAA	1.77
CAGCUGUAAUUCUUCCAGCUCUCUCCAAAAGCACCAGUUCUUAUCUUGGGCCUGCACUAGGCUUUAGAAAUGACAGUUUGUGAGUCUAUGAAUAAUUAUUUUUUAAAAAA	0.634
UAUAUGUAUAUGCUGUGUCAUACUCAUAAUCUGGAAAUGAAUAAAGUGAUAUAUUCCUGGUUUGUAAUUUGUUCCUAGUUUGUCUUUUUUCAUGGUGAUGUUUGUUUCCU	1.57
CACGCCCAGGGGAUGUCCUCACGCUGUCGCCGCGCGGUUUCCCUUCGCAGAUGUGUAUACUCAUGAUAGGUCAGAAAGUGUAUCCGCUACAAUAAAGUUCUGGUUCUAAC	0.267
GGAGAAUUGAGACUUGGAAAAGGCUUGGGUACAAUUAAGAAAAACCCUACAUCCCACCCUCCUCUUGACGCGUUUCUGGUGGUUUCGGUUUCUGCGUUGCCCUCCAGAUC	0.235
AUAUUUUUCCAGAAAAUUUUUAUACAGUGUCAUUUAAUUGGGGAAAGGAUACUGUCAAAAAAUUAAUGCAUACUUUUGUCACAAUUUACCUUUUUGUGGGUGUGUUUUUG	1.41
GCAAGCGUGCAGAAACUAACUCCUCUCUCACAAAGGCUUAUAAAAUUGGUGUGUCCUAUGGAAAUGGAAAGAAAGAUAGAUAAGACAUUUCUGUCAAUUUUCAAGAACUU	0.759

Series 3
Target: Histone acetyltransferase KAT6A, both winged helices, GST fusion (KAT6A, Homo sapiens, UniProt Q92794, residues 1-181)
Method: protein binding microarray
Molecule type: double-stranded DNA, one strand shown
Sample: in vitro
Concentration: not given
Notes: 8-mer, flanks averaged, mean of 2 arrays, mostly near background
Relative to: not given
Reading: higher = stronger binding
Residues (chain): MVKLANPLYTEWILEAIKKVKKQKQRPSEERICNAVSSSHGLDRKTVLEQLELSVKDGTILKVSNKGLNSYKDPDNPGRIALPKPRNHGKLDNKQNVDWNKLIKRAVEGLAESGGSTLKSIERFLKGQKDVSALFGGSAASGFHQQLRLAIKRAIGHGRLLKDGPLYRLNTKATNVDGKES
Sequence	E-score
CCTTTCTA	0.0518
CTGAGCCC	-0.115
ATTACGTG	-0.119
AATAGGGT	-0.195
CTCTTTCC	-0.105
CCAAGGGC	0.0134
CGTGTTTA	0.0416
AACACGTC	0.00766
AATACGAC	-0.134
ACAGATGA	-0.153
ATCGGCAG	0.164
CCAGACTC	-0.178
CCATCTCG	-0.102
AACATACT	-0.139
AAAGGGGA	-0.121
AGGCAGCG	0.0518
CGTCTTCC	0.0517
CTTGTCTC	-0.221
ATATCATG	-0.0523
AAGCAGCA	-0.179
AGTTGGAT	-0.179
AGCAATAT	-0.151
GGATGAGA	-0.125
CAGAAATG	-0.0486
CAAAACTC	-0.0217

Series 4
Target: Ras GTPase-activating protein-binding protein 1, full length (G3BP1, Homo sapiens, UniProt Q13283)
Sequence of UniProt Q13283 (whole entry, looked up): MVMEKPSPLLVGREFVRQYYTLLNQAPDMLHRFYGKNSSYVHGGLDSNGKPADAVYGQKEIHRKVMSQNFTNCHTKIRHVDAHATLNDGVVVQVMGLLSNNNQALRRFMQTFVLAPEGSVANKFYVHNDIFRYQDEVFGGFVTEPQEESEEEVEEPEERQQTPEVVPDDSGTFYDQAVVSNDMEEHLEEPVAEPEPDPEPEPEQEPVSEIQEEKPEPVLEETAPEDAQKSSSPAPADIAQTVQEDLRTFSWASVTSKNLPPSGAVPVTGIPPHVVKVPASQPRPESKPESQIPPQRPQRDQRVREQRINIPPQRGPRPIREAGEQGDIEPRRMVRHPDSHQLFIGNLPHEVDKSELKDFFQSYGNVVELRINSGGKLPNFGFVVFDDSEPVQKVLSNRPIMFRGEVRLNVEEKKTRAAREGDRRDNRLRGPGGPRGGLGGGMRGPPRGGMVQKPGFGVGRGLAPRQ
Method: RNA Bind-n-Seq
Molecule type: RNA
Sample: in vitro
Concentration: 200 nM
Notes: whole 134-nt RNA, ends assumed
Together with: 150 mM LiCl
Relative to: input library
Reading: higher = stronger binding
Each molecule: 7-deaza-guanosine replaces G
Shared flanks, not repeated: GGGAGUUCUACAGUCCGACGAUC … UGGAAUUCUCGGGUGUCAAGG
Sequence	log2 enrichment
GUCCUGUGCUACACAUCGUAUGUACCGAAUCGGGAAAAAAAGGGAAAAAGGGAAAGGGAAAGUAUUAUGUUACGCCGUUCGGAUCUGCAC	-0.171
CUCAAGUCCUGUGCUACACAUCGUAUGUACCGAAUCGGUUGGGUUGGGUUGGGAAAGUAUUAUGUUACGCCGUUCGGAUCUGCACUUCCA	0.357
CACAGACAACACGCACCCACACAGACACAGAGGGAAGGGGUUGGGAUGGGUACAGGGUGCACAGCAGGGCGGGGUAGGACCCCAGCCCCU	0.252
AAGUCCUGUGCUACACAUCGUAUGUACCGAAUCGGGGUUUUUGGGGAGGGGUGGGGAAAGUAUUAUGUUACGCCGUUCGGAUCUGCACUU	-0.284
GCAGGAAGUAAAAACAAAUGGAAAUGCUUCGGAUAGUGGCAGGGGUGGGGGUUGCUAAGGAAAGGGUGGGAUGGUAGUGGGUAAAGAGUU	0.146
CUCAAGUCCUGUGCUACACAUCGUAUGUACCGAAUCGGGUGGGUUUGGGUGGGAAAGUAUUAUGUUACGCCGUUCGGAUCUGCACUUCCA	0.0292
CAAGUCCUGUGCUACACAUCGUAUGUACCGAAUCGGGGAAGGGGAAGGGGAAGGGGAAAGUAUUAUGUUACGCCGUUCGGAUCUGCACUU	0.0465
AGUCCUGUGCUACACAUCGUAUGUACCGAAUCAAAUUUAAACCCCCCCAAAUUUAAAAAAGUAUUAUGUUACGCCGUUCGGAUCUGCACU	1.13
AGUCCUGUGCUACACAUCGUAUGUACCGAAUCGGUUUUUUUGGUUUUUGGUUUUUGGAAAGUAUUAUGUUACGCCGUUCGGAUCUGCACU	-1.5
CACAGACCACACGCACCCACACAGACACAGAGGGAAGGGGUUGGGAUGGGGACAGGGUGCACAGCAGGGCGGGGUAGGACCCCAGCCCCU	0.242
GCAGGAAGUAAAAACAAAUGGAAAUGCUUCGGAUAGUGGCAGGGGUGGGGGUUGCUAAAGAAAGGGUGGGAUGGGAGUGGGUAAAGAGUU	0.487

Series 5
Target: Centromere-binding protein 1, full length, N-terminal tag (CBF1, Saccharomyces cerevisiae, UniProt P17106, residues 1-351)
Sequence of UniProt P17106 (whole entry, looked up): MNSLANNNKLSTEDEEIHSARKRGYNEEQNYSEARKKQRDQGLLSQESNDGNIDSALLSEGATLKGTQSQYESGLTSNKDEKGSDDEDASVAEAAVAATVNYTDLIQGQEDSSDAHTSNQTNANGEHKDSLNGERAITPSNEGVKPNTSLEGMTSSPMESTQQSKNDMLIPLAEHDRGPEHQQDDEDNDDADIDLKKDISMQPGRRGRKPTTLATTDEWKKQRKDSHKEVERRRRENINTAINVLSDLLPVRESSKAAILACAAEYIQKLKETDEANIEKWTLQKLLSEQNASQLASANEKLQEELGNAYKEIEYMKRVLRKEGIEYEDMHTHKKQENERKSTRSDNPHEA
Method: protein-binding microarray
Molecule type: double-stranded DNA, one strand shown
Sample: in vitro
Concentration: 0.8 µM
Notes: whole 60-bp probe, no competitor
Reading: higher = stronger binding
Shared flanks, not repeated: … GTCTTGATTCGCTTGACGCTGCTG
Sequence	fluorescence intensity [a.u.]
GAAACACGTACGATCTACGTGCGGCTGTAGCGTTAG	608
CTAATCAAAACAAATCGTGTCACTCATTAAACATTC	515
CTAAGGTCCACGTACGTCACAAATATCTTCTTTTTC	473
GAATCGATTAATTATAATCACGTTGTTCCTTCCTAG	2150
GAAAAGGGCCTTCGTCATCACTAACTGGTCCAATAG	531
CTACAAAGATGCTCTTGTGACGTCCAAAACCAGTTC	576
CTATCTACTAAGAGTAACGTGGCTGAGAAGAGATTC	732
TGTACGAAGCTATGTCACGAGATTATAGTAGTTAGG	2220
GAACTGATCACTCCGCACGTGCGCGCTGAGAGGTAG	8990
GAAATGCTAAAATATGGCGTGACCGTAATAACATAG	1780
GAATTCTTCTTCGCCCACGTTAAATTTTATCCCTAG	555
GAATACGCACAAATGCACATGTATACATACGCATAG	640
GAATCCTTTTCATCTTATGTGACTGTCATTCATTAG	522
CTATCGCCGGTGGCCCGTGTGGGTTAAGGGAGGTTC	493
GAATTAGGTTAAAAGCACGTGGCACGAGAAACGTAG	7070
GAACGTTTGAAGTGACGCGTCACTAACCATGACTAG	502
CTACAAGCGAGAAGTCACGCTTATAACGCAAGTTTC	869
CTACTACCTTCACTGCACGAAACCAAAACCGACTTC	575
GAAAATTTAAGAAGTTGCGTGGCAATAGGTGGCTAG	538
GAAGATCGGTAATAGAACATCAGGATTACTCTGTAG	513
GAAAAAACAAAAGCAAATCACATGTGCACATACTAG	4420
GAAATTTATCAAATACATGTGAATTAAAAATTATAG	750

For quick reference, copied from above (series 2):
Sequence	RBNS enrichment (R)
GUGAUGCUUGUGUUGACCAGAUGUUCCUGAGUCUGGAGCAAGCACCCAGGCCAGAAUAACAGAGCUUUCUUAGUUGGUGAAGACUUAAACAUCUGCCUGAGGUCAGGAGG	0.407
ACAGAUGGUAUCCCUUCCUGGAUCAUUCAUUUCACCUUGGUUUCUAACUUUAGGUUUACUUUCACUUGUUAUUUGACUUAGCAGGUGCAACAAAAACAAGAAACAAAUGU	0.315
UUGUAUAACUCAGGCGUCUUUGCAUUUCUGCGAAAGAUCAAGGUCUGCAAGGGAAUUCUUGUGUGCUGCUUUCCAUUUGACACCGCAGUUCUGUUCAGCCAUCAGAAGAG	0.443
GUGUCUCUUUGGGAGAUGGUGUUCAAGUGGGAUACCUAAGUCUUCCCGUGGCUAGAUCCAGAGCAGAUUCAGCCGGCUCAUUUCCAAGGGCUGGGCCACUGCACAGUUUG	0.304
CUUGUUUACAGAAGAGAAACAAACAAGCCCCACUCAGCUCAGUCACAGGAGAGAACACAGAAAGUCUUAGGAUCAUGAACUCUGAAAAAAAGAGAAACCUUAUCUUUGCU	0.637
CUUUAGACCCUGACACGUGGAUGUUCUUCUGCAGUCUUGUCUGCUAAGUUUUAAAUAAAGUCAUGAUCAGUGUGCAUUUGUGAUUACAUGUGUACUCAUUCUUUUCCCAA	1.77
CAGCUGUAAUUCUUCCAGCUCUCUCCAAAAGCACCAGUUCUUAUCUUGGGCCUGCACUAGGCUUUAGAAAUGACAGUUUGUGAGUCUAUGAAUAAUUAUUUUUUAAAAAA	0.634
UAUAUGUAUAUGCUGUGUCAUACUCAUAAUCUGGAAAUGAAUAAAGUGAUAUAUUCCUGGUUUGUAAUUUGUUCCUAGUUUGUCUUUUUUCAUGGUGAUGUUUGUUUCCU	1.57
CACGCCCAGGGGAUGUCCUCACGCUGUCGCCGCGCGGUUUCCCUUCGCAGAUGUGUAUACUCAUGAUAGGUCAGAAAGUGUAUCCGCUACAAUAAAGUUCUGGUUCUAAC	0.267
GGAGAAUUGAGACUUGGAAAAGGCUUGGGUACAAUUAAGAAAAACCCUACAUCCCACCCUCCUCUUGACGCGUUUCUGGUGGUUUCGGUUUCUGCGUUGCCCUCCAGAUC	0.235
AUAUUUUUCCAGAAAAUUUUUAUACAGUGUCAUUUAAUUGGGGAAAGGAUACUGUCAAAAAAUUAAUGCAUACUUUUGUCACAAUUUACCUUUUUGUGGGUGUGUUUUUG	1.41
GCAAGCGUGCAGAAACUAACUCCUCUCUCACAAAGGCUUAUAAAAUUGGUGUGUCCUAUGGAAAUGGAAAGAAAGAUAGAUAAGACAUUUCUGUCAAUUUUCAAGAACUU	0.759
